Measurements of several laboratories.
Each numbered part is a random draw from the data of one study; scales do not carry over between parts.
UniProt P19784, sequence (whole entry, looked up): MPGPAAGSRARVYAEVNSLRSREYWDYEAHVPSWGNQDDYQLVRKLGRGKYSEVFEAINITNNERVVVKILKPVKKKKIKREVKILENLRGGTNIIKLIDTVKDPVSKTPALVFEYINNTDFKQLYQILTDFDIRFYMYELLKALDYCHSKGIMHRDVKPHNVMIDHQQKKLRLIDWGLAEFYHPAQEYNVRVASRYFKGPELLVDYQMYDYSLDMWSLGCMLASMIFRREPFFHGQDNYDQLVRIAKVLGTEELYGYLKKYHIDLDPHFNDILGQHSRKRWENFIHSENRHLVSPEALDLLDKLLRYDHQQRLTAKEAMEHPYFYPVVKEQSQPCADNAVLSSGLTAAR

Set 1
Target: Prothrombin, mature alpha-thrombin (F2, Homo sapiens, UniProt P00734)
Technique: aptamer microarray, sandwich
Molecule type: DNA with 2'F-ANA
Sample: in vitro
Concentration: 200 nM
Setting: whole 15-mer aptamer, many near background
With: Cy3 exosite-II aptamer, 400 nM
Reading: higher = stronger binding
Sequence: GGTTGGTGTGGTTGG
| Modification | mean fluorescence intensity |
| --- | --- |
| 2'F-ANA at 1 2 5 8 9 10 13 | 44.8 a.u. |
| 2'F-ANA at 1 2 3 6 8 12 13 14 | 88.6 a.u. |
| 2'F-ANA at 8 11 13 | 498 a.u. |
| 2'F-ANA at 1 3 6 7 13 14 | 80.9 a.u. |
| 2'F-ANA at 2 3 4 5 6 8 11 12 15 | 151 a.u. |
| 2'F-ANA at 2 6 7 9 10 11 12 13 14 | 77.9 a.u. |
| 2'F-ANA at 3 4 6 9 10 11 12 13 14 15 | 167 a.u. |
| 2'F-ANA at 2 4 5 7 9 10 11 12 13 14 15 | 48.9 a.u. |

Set 2
Target: Phosphate system positive regulatory protein PHO4, full length, GST-tagged (PHO4, Saccharomyces cerevisiae, UniProt P07270, residues 1-312)
Technique: competition protein-binding microarray
Molecule type: double-stranded DNA, one strand shown
Sample: in vitro
Concentration: 2 µM
Setting: whole 60-bp probe, lowest competitor level
With: Cbf1 competitor, 0.05 µM
Reading: higher = stronger binding
All sequences stand within: … GTCTTGATTCGCTTGACGCTGCTG
Target sequence (chain): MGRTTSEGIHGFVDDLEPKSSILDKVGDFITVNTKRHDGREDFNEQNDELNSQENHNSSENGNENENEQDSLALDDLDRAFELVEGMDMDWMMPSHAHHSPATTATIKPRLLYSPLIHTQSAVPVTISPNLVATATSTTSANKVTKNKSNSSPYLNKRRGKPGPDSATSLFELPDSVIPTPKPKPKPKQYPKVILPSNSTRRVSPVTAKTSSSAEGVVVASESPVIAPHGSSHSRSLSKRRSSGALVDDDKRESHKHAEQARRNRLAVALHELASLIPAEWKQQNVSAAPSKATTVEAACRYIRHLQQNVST
| Sequence | fluorescence intensity [a.u.] |
| --- | --- |
| CTTTCCCGATCTTTTCACGTGAAATTAGCACATTTG | 9340 |
| TGCGCAACAACTTGCGACGTGGGTGTATGTCTAGAA | 6700 |
| CATATTTATGACTGTCACATGATATTGAGGTTACTC | 8210 |
| TGGGTTTCTGTGAACACCGTGCCAGACACCATTGAC | 7880 |
| TAGTGTGTAATGTAAAGCGTGCGATTCTTGATCTGG | 8470 |
| CTTAATTGCCGGCTCCTCGTGGTGAGATAAAATGAA | 14000 |
| CTTGTCAAAATCCGTCACGTGGTGAAGGGTCTGGTT | 16700 |
| CATACCCAACCTTGGCGAGTGGGTGAAGATATTTGT | 4340 |

Mixed results
| Compound | target or system | test | conditions | how to read | measurement | value |
| --- | --- | --- | --- | --- | --- | --- |
| CN(C)CCCn1cc(C2=C(c3c[nH]c4ccccc34)C(=O)NC2=O)c2ccccc21 | CSNK2A2 (Homo sapiens, UniProt P19784) | enzyme activity, inhibitor | 0.5 µM | baseline: control | remaining activity | 92% |
| CN(C)[C@@H]1CCN(c2cc(-c3ccccc3)nc3ccnn23)C1 | normal-adjacent organoid sample F | CellTiter-Glo | 1 µM, replicate mean | baseline: DMSO | viability | 107% |
